Experimental data of several laboratories.
Each line is one published result; not all experiments were run side by side. Numbers after ± are the reported error.
Organism: Plasmodium falciparum

CC[C@H](C)[C@H](NC(=O)[C@@H](NC(=O)[C@H](Cc1ccc(O)cc1)NC(=O)[C@H](CCCCN)NC(=O)[C@H](CCCCN)NC(=O)[C@H](CC(C)C)NC(=O)[C@H](CC(=O)O)NC(=O)[C@H](Cc1ccc(O)cc1)NC(=O)[C@H](CCC(N)=O)NC(=O)[C@H](CCCCN)NC(=O)[C@@H](NC(=O)[C@H](Cc1ccccc1)NC(=O)[C@H](CCCCN)NC(=O)[C@H](CCCCN)NC(=O)[C@H](Cc1c[nH]c2ccccc12)NC(=O)[C@H](CCCCN)NC(=O)[C@H](CCSC)NC(=O)[C@H](CCCNC(=N)N)NC(=O)[C@H](CCCNC(=N)N)NC(=O)[C@H](CC(N)=O)NC(=O)[C@H](CCC(N)=O)NC(=O)[C@H](Cc1ccccc1)NC(=O)[C@H](Cc1c[nH]c2ccccc12)NC(=O)[C@@H](NC(=O)[C@H](CCCCN)NC(=O)[C@@H](NC(=O)[C@H](CCC(N)=O)NC(=O)[C@@H](N)CCCNC(=N)N)[C@@H](C)CC)[C@@H](C)CC)[C@@H](C)CC)[C@@H](C)CC)C(=O)O — EC50 (parasite growth; 3D7; 24 h, early trophozoite stage): ~50000 nM
O=C1C2=C(Nc3ccccc3SC2c2ccsc2)c2ccccc21 (racemic) — EC50 (growth, [3H]hypoxanthine incorporation; Dd2): 157 nM
CC[C@H](C)[C@H](NC(=O)[C@H](CC(C)C)NC(=O)[C@H](CCC(N)=O)NC(=O)[C@@](C)(CC)NC(C)=O)C(=O)NC(C)(C)C(=O)N1CCC[C@H]1C(=O)N[C@](C)(CC)C(=O)N[C@@H](CC(C)C)C(=O)NC(C)(C)C(=O)N1CCC[C@H]1C(=O)N[C@H](CO)CC(C)C — EC50 (parasite growth; DD2; drug-resistant strain): 100 nM
CC(C)C[C@@H](NC(=O)[C@@H](C)NC(=O)[C@@H](CCCCN)NC(=O)[C@@H](CC(C)C)NC(=O)[C@@H](C)NC(=O)[C@H]1CCCN1C(=O)[C@@H](CC(C)C)NC(=O)[C@@H](Cc1c[nH]c2ccccc12)NC(=O)[C@@H](CCCCN)NC(=O)[C@@H](C)NC(=O)[C@@H](CC(C)C)NC(=O)[C@@H](C)NC(=O)[C@@H](Cc1c[nH]cn1)NC(=O)[C@@H](CCCCN)NC(=O)[C@@H](CC(C)C)NC(=O)[C@@H](C)NC(=O)[C@@H](CCCCN)NC(=O)[C@H](N)CCCCN)C(=O)N[C@H](C)C(=O)N[C@H](Cc1c[nH]cn1)C(=O)N[C@H](CCCCN)C(=O)N[C@H](CC(C)C)C(=O)N[C@H](C)C(=O)N[C@H](CCCCN)C(=O)N[C@H](CCCCN)C(N)=O — EC50 (SYBR Green fluorescence; C10; 48 h, 37 °C): 3940 ± 330 nM
CCC(C)C1NC(=O)C(Cc2ccccc2)NC(=O)C(CCCCCC(=O)C2CO2)NC(=O)C2CCCCN2C1=O (centres unmarked) — EC50 (parasite growth, SYBR Green I; 3D7, drug-sensitive; 72 h): 69 ± 3 nM
CC(C)C[C@@H](NC(=O)[C@@H](C)NC(=O)[C@@H](CCCCN)NC(=O)[C@H](N)CCCCN)C(=O)N[C@H](C)C(=O)N[C@H](Cc1c[nH]cn1)C(=O)N[C@H](C)C(=O)N[C@H](CC(C)C)C(=O)N[C@H](CCCCN)C(=O)N[C@H](CCCCN)C(=O)N[C@H](Cc1c[nH]c2ccccc12)C(=O)N[C@H](CC(C)C)C(=O)N1CCC[C@@H]1C(=O)N[C@H](C)C(=O)N[C@H](CC(C)C)C(=O)N[C@H](CCCCN)C(=O)N[C@H](CCCCN)C(=O)N[C@H](CC(C)C)C(=O)N[C@H](C)C(=O)N[C@H](Cc1c[nH]cn1)C(=O)N[C@H](C)C(=O)N[C@H](CC(C)C)C(=O)N[C@H](C)C(=O)N[C@H](CCCCN)C(=O)N[C@H](CCCCN)C(N)=O — EC50 (SYBR Green fluorescence; C10; 48 h, 37 °C): 2880 ± 250 nM
CC(C)C1NC(=O)C(Cc2ccccc2)NC(=O)C(CCCCCC(=O)C2CO2)NC(=O)C2CCCCN2C1=O (centres unmarked) — EC50 (parasite growth, SYBR Green; DD2; drug-resistant strain, blood stage): 240 nM
COC(=O)c1[nH]c(C(=O)OC)c2c1-c1c[nH]c3ccc(Cl)c(c13)[C@@]21C=Nc2ccc(Cl)cc21 — EC50 (parasite growth, SYBR Green; DD2; 72 h, drug-resistant strain, blood stage): 6600 nM
CN(C)CCCOc1ccc(C2Sc3ccccc3NC3=C2C(=O)c2ccccc23)cc1 (racemic) — EC50 (growth, [3H]hypoxanthine incorporation; 3D7): 1470 nM
CCC12C=C(C(=O)OC)n3c(c(c4ccccc43)CCN(C=CC(=O)OC)CCC1)C2OC (centres unmarked) — EC50 (parasite growth, SYBR Green; DD2; drug-resistant strain, blood stage): 13200 nM
CC(C)C[C@@H](NC(=O)[C@@H](C)NC(=O)[C@@H](CC(C)C)NC(=O)[C@@H](CCCCN)NC(=O)[C@@H](CCCCN)NC(=O)[C@@H](CC(C)C)NC(=O)[C@@H](C)NC(=O)[C@H]1CCCN1C(=O)[C@@H](CC(C)C)NC(=O)[C@@H](Cc1c[nH]c2ccccc12)NC(=O)[C@@H](CCCCN)NC(=O)[C@@H](CCCCN)NC(=O)[C@@H](CC(C)C)NC(=O)[C@@H](C)NC(=O)[C@@H](CC(C)C)NC(=O)[C@@H](CC(C)C)NC(=O)[C@@H](C)NC(=O)[C@@H](CC(C)C)NC(=O)[C@@H](CCCCN)NC(=O)[C@H](N)CCCCN)C(=O)N[C@H](CC(C)C)C(=O)N[C@H](C)C(=O)N[C@H](CC(C)C)C(=O)N[C@H](CCCCN)C(=O)N[C@H](CCCCN)C(N)=O — EC50 (SYBR Green fluorescence; C10; 48 h, 37 °C): 2180 ± 410 nM
CC[C@]12CCCN3CC[C@]4(C(=O)c5ccccc5N4C(=O)C1)[C@@H]32 — EC50 (parasite growth, SYBR Green; DD2; drug-resistant strain, blood stage): 4940 nM
CC(C)C[C@@H](NC(=O)[C@@H](C)NC(=O)[C@@H](CC(C)C)NC(=O)[C@@H](CCCCN)NC(=O)[C@H](N)CCCCN)C(=O)N[C@H](C)C(=O)N[C@H](CC(C)C)C(=O)N[C@H](C)C(=O)N[C@H](CCCCN)C(=O)N[C@H](CCCCN)C(=O)N[C@H](Cc1c[nH]c2ccccc12)C(=O)N[C@H](CC(C)C)C(=O)N[C@H](C)C(=O)N[C@H](CC(C)C)C(=O)N[C@H](C)C(=O)N[C@H](CCCCN)C(=O)N[C@H](CCCCN)C(=O)N[C@H](CC(C)C)C(=O)N[C@H](C)C(=O)N[C@H](CC(C)C)C(=O)N[C@H](C)C(=O)N[C@H](CC(C)C)C(=O)N[C@H](C)C(=O)N[C@H](CCCCN)C(=O)N[C@H](CCCCN)C(N)=O — EC50 (SYBR Green fluorescence; C10; 48 h, 37 °C): 2130 ± 140 nM
COc1ccc(C2Sc3ccccc3NC3=C2C(=O)c2ccccc23)cc1 (racemic) — EC50 (growth, hypoxanthine uptake; Dd2 expressing yeast DHOD): > 5000 nM
CCC12C=C(C(=O)OC)n3c(c(c4ccccc43)CCN(C=CC(=O)OC)CCC1)C2OC(C)C (centres unmarked) — EC50 (parasite growth, SYBR Green; DD2; drug-resistant strain, blood stage): 3770 nM
COC(=O)c1[nH]c(C(=O)OC)c2c1-c1c[nH]c3ccc(Cl)c(c13)C21CN(C)c2ccc(Cl)cc21 (racemic) — EC50 (parasite growth, SYBR Green; DD2; 72 h, drug-resistant strain, blood stage): 5500 nM
O=C1C2=C(Nc3ccccc3SC2C2CCCCC2)c2ccccc21 (racemic) — EC50 (growth, hypoxanthine uptake; Dd2 expressing yeast DHOD): > 5000 nM
CC(C)C[C@@H](NC(=O)[C@@H](C)NC(=O)[C@@H](CC(C)C)NC(=O)[C@@H](CCCCN)NC(=O)[C@H](N)CCCCN)C(=O)N[C@H](Cc1c[nH]cn1)C(=O)N[C@H](C)C(=O)N[C@H](CC(C)C)C(=O)N[C@H](CCCCN)C(=O)N[C@H](CCCCN)C(=O)N[C@H](Cc1c[nH]c2ccccc12)C(=O)N[C@H](CC(C)C)C(=O)N[C@H](Cc1c[nH]cn1)C(=O)N[C@H](C)C(=O)N[C@H](CC(C)C)C(=O)N[C@H](CCCCN)C(=O)N[C@H](CCCCN)C(=O)N[C@H](CC(C)C)C(=O)N[C@H](C)C(=O)N[C@H](Cc1c[nH]cn1)C(=O)N[C@H](CC(C)C)C(=O)N[C@H](C)C(=O)N[C@H](CC(C)C)C(=O)N[C@H](CCCCN)C(=O)N[C@H](CCCCN)C(N)=O — EC50 (SYBR Green fluorescence; 3D7; 48 h, 37 °C): 1260 ± 140 nM
O=C1C2=C(Nc3ccccc3SC2c2ccc(F)cc2)c2ccccc21 (racemic) — EC50 (growth, [3H]hypoxanthine incorporation; Dd2): 13 nM
CC(C)C[C@@H](NC(=O)[C@H]1CCCN1C(=O)[C@@H](CC(C)C)NC(=O)[C@@H](Cc1c[nH]c2ccccc12)NC(=O)[C@@H](CCCCN)NC(=O)[C@@H](CCCCN)NC(=O)[C@@H](C)NC(=O)[C@@H](CC(C)C)NC(=O)[C@@H](C)NC(=O)[C@@H](CC(C)C)NC(=O)[C@@H](C)NC(=O)[C@@H](CC(C)C)NC(=O)[C@@H](CCCCN)NC(=O)[C@H](N)CCCCN)C(=O)N[C@H](C)C(=O)N[C@H](CCCCN)C(=O)N[C@H](CCCCN)C(=O)N[C@H](CC(C)C)C(=O)N[C@H](C)C(=O)N[C@H](CC(C)C)C(=O)N[C@H](C)C(=O)N[C@H](CC(C)C)C(=O)N[C@H](C)C(=O)N[C@H](CCCCN)C(=O)N[C@H](CCCCN)C(N)=O — EC50 (SYBR Green fluorescence; 3D7; 48 h, 37 °C): 880 ± 60 nM
CCC12CCCN(C=CC(=O)OC)CCc3c(n(c4ccccc34)C(O)(C(=O)OC)C1)C2Oc1ccccc1 (centres unmarked) — EC50 (parasite growth, SYBR Green; DD2; drug-resistant strain, blood stage): 2650 nM
O=C1C2=C(Nc3ccccc3SC2c2ccc(O)c(O)c2)c2ccccc21 (racemic) — EC50 (growth, hypoxanthine uptake; Dd2 expressing yeast DHOD): > 5000 nM
COC(=O)c1[nH]c(C(=O)OC)c2c1-c1c[nH]c3ccc(Cl)c(c13)C21CNc2ccc(Cl)cc21 (racemic) — EC50 (parasite growth, SYBR Green; DD2; 72 h, drug-resistant strain, blood stage): 7100 nM
